Published values of several laboratories.
Every numbered part comes from another study and shows a few of its results, in no order. Positions count from the first letter of the parent shown.

Study 1 — method: RNA Bind-n-Seq; molecule type: RNA; medium: in vitro; tested at: not given; baseline: input RNA pool; reading: higher = stronger binding
Target: RING finger protein unkempt homolog, zinc fingers 1-6, GST-SBP tag (UNK, Homo sapiens, UniProt Q9C0B0, residues 30-357)
UniProt Q9C0B0, sequence (30-357, looked up): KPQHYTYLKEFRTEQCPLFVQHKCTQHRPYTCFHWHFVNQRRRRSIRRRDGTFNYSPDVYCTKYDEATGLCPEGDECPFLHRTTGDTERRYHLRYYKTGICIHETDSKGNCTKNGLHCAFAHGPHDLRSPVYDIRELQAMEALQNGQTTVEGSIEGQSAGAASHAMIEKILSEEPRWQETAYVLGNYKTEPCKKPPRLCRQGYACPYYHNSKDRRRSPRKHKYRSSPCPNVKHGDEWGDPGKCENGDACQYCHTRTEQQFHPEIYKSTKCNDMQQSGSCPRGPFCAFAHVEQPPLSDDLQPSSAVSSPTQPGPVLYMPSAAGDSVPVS
Setting: RNA with constant flanks, human-mouse chimeric sites, ends assumed
The bound/input enrichment of `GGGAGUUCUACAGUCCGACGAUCGCACUUCUCAAAUACUGGCCAAAGACUCACAGUCCAAAAGAAGUAAUGUUCUUAAACGAAUUAGAAGAGAUUUUAGAUGUAAUUGAACCAUCAGAGUUUGUGAAGAUCAUGGAGCCUCUUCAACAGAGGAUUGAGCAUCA` is reported as 0.625 ratio.
For `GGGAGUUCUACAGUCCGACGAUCAAUUUCCUGUCAUACUUUUUAGACAUUCACAUCAGACGCCUUACUACUUGGGCCUCUUUCUAGGUUUGUGUUAUUUCUCAGCUAUGGAUAUGAUCAAAUGAGAACACUGCUUAACUAAUGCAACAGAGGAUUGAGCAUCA`, the bound/input enrichment was 0.948 ratio.
With `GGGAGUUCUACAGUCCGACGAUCGUAGCUGGGACUACAGAAAUGCUGGUAAUUUCAGUCACUUGCUGAUGACUUCUGAUGUCCCAGCAAAUAAUGCCACAGUUGACUGCUGAGAAGAUACUUCUGAGGACAUACAGCAGUGGUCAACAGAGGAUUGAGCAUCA` the bound/input enrichment was 0.141 ratio.
The bound/input enrichment of `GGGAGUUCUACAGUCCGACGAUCUUACCCGAGAACGAGGAUGAGCUGGAGAGCACCAACAGACGCUAUACCAAGAGGGACUGCAGCACUUUCCUCAGAACUAGUGAGACGGGCAUCGUGGACCAGGUCAUGGUAACUCUCAACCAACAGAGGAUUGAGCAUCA` is reported as 0.203 ratio.
With `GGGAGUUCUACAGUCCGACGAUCGCUCCUCCCCGCUCUGCAGCCUGGGGACACUGGGCUGGGACCAGAAUCUUAUUUUUUUUUAAUAGUGUCAGUGUAACUGUAUCCCGUGACAUUUCAUUUUUUUUAAAUAGUGUAUUUUUUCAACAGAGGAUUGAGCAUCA` the bound/input enrichment was 29.6 ratio.
With `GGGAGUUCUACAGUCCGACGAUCCAGUUGAAGACAGAAAAGGAUGAGAAGGAGCUGUAUAAGGUACAUUUGAAGAAUACAGAAAUAGAAAAUACGAAGCUUGUGUCAGAGAUACAGACUUUAAAAAAUUUAGAUGGAAACAAACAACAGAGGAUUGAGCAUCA` the bound/input enrichment was 3.76 ratio.
`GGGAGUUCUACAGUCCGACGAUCGCCACCAGAUCCCAGAAACAUGACUCUUGCUGCCUACAAAGAGAAGAUGAAGGAGCUCCCACUAGUGUCCUUGUUCUGCUCCUGCUUCCUGGCCGAUCCCCUGAAUAAGUCGUCCUACAACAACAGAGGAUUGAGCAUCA` has a bound/input enrichment of 0.834 ratio.
`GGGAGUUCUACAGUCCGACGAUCAUCAAAUACUUUGGGGACAUCAUUAGUGUGGGACAGAGACUGUUGCAAGGAGCUCGGAUCUUAGGGAUUCCAGUUAUUGUAACAGAACAAUACCCUAAAGGACUUGGCAGCACCGUUCAACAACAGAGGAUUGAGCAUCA` has a bound/input enrichment of 0.165 ratio.

Study 2 — method: DHFR PCA, deep sequencing; medium: yeast; added: (+)-ABA 17 µM; baseline: wild-type fitted maximum; reading: higher = stronger binding
Target: ABI1, truncated, D143A, DHFR fusion (Arabidopsis thaliana)
Setting: methotrexate growth selection, single substitutions
Starting sequence: PYL1, truncated, DHFR fusion (Arabidopsis thaliana); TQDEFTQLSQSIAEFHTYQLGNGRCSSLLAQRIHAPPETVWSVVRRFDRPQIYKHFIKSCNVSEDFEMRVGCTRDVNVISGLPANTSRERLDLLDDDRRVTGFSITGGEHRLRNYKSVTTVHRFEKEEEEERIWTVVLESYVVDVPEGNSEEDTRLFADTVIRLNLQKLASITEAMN; partner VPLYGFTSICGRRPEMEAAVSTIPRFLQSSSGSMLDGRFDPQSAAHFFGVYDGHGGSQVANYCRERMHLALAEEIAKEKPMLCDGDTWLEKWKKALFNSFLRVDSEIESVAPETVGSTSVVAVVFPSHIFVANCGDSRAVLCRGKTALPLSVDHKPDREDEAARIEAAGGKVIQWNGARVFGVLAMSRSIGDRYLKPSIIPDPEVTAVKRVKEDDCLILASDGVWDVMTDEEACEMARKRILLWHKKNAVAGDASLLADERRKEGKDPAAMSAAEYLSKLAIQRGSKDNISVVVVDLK
For `N165L`, “relative binding score” read -7.61%.
Under “relative binding score”, `Y18G` is recorded as 46.4%.
`P83V`: “relative binding score” -0.0617%.
For `L82S`, “relative binding score” read 4.95%.
`L29K` — result for “relative binding score”: 32.2%.
Under “relative binding score”, `N61I` is recorded as 86.9%.
Under “relative binding score”, `S87N` is recorded as -3.46%.
`R99H` — result for “relative binding score”: 92%.
`F15V` — result for “relative binding score”: 23.7%.
`R155N` — result for “relative binding score”: 45.9%.
`E128R` — result for “relative binding score”: 80.5%.
Under “relative binding score”, `N77R` is recorded as 94.4%.
`S27L`: “relative binding score” -0.0691%.
`E152M` — result for “relative binding score”: 73.4%.

Study 3 — method: protein binding microarray; molecule type: double-stranded DNA, one strand shown; medium: in vitro; tested at: not given; baseline: not given; reading: higher = stronger binding
Target: Histone acetyltransferase KAT6A, winged helix 2, GST fusion (KAT6A, Homo sapiens, UniProt Q92794, residues 85-181)
Setting: 8-mer, flanks averaged, mean of 2 arrays, mostly near background
Construct (chain): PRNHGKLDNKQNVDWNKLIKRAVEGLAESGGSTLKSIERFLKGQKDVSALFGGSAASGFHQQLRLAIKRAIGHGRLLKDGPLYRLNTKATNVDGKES
`CTTGTAAA` gave an E-score of -0.0182.
The E-score of `AGTTGTGA` is reported as -0.0619.
For `ACGAAGTG`, the E-score was 0.135.
The E-score of `ATTCGCCC` is reported as 0.0707.
`ACTACCCC` gave an E-score of -0.294.
`ACGGGGCC` has an E-score of -0.0773.
The E-score of `AAGAGTAC` is reported as 0.0814.
`GTCTGACA` gave an E-score of -0.0562.
`AACGGAGA` has an E-score of 0.062.
The E-score of `TCACGACA` is reported as -0.0417.
With `ACATGGCC` the E-score was -0.0666.
With `AACAGGTC` the E-score was -0.00632.
`AACACTGG` has an E-score of -0.179.
`CATCTGAA` has an E-score of 0.0047.
The E-score of `CACTCGGC` is reported as 0.187.
The E-score of `AGGGATTA` is reported as -0.0362.
The E-score of `GGGGTGTA` is reported as -0.0702.
For `ATAACGAA`, the E-score was 0.0493.
`AACAATGA` gave an E-score of 0.0467.

Study 4 — method: RNA Bind-n-Seq; molecule type: RNA; medium: in vitro; tested at: 365 nM; baseline: no-protein control; reading: higher = stronger binding
Target: RNA binding protein fox-1 homolog 2, RRM domain, GST-SBP tag (RBFOX2, Homo sapiens, UniProt O43251-10, residues 100-194)
Setting: natural RNA segment, single round, ends assumed
Construct (chain): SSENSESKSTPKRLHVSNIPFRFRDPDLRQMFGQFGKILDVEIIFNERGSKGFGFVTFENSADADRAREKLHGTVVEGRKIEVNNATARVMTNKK
`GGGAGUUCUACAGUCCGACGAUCGUGUGCCCGGAUGCAUGGAUGCCUGGGUUCCUAGAUGCAUAGAUGCCUGGGUGCCUGGAUGCAUGGAUGCCUGGGUGCCCGGAUGCAUGGAUGCAUGGGUGCCCGGAUGCUGGAAUUCUCGGGUGCCAA`: “RBNS enrichment (R)” 18.9.
For `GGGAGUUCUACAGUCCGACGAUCUGAAAGCCUUAGUUCCCACAGAGGACGGAUCUGUCACUCCUAGGGGCUGGGCAUAUGUCGGCCUCUUGUGCCAAGGCCAGGCAAGCAGCUCCAGGUCCUGACCAGUUUGCUGGAAUUCUCGGGUGCCAA`, “RBNS enrichment (R)” read 0.343.
For `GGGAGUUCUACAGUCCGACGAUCUCCUGCCGUCCUCCCACUGGCAUCCUGGCAAGGGGGCGUUGCUUUUCCUGGGCGGCCUUUUAUGUCUUGGAGACACCUGAUGUAAAGUUUCUGUAAAUCUAUUUCAUAUCUGGAAUUCUCGGGUGCCAA`, “RBNS enrichment (R)” read 0.533.
`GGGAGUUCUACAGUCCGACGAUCGUGUGAUGUAUCACAAAUUGUGCUGAGGUUAUUUUAGUAUGUGUGUUUCAUUCCCGUGCUUCUGUUCUGAAGUCCUGGAAUACAGUUUUCAGUGUAAUUAAUUCAACUGCUGGAAUUCUCGGGUGCCAA` — result for “RBNS enrichment (R)”: 0.819.
`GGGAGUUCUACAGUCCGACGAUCUGUGAAGUCUUAAAGCACUUCUGCUUAAACUCCCAUGUGUGAGGAGUGUGCCUCCCUGUGCCCUCUCAGCUCUGAGGCUGGCCGUCUUUCGGGGUGUUCCUUUUGGCAAAUGGAAUUCUCGGGUGCCAA`: “RBNS enrichment (R)” 0.469.
For `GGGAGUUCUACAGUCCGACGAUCUGAAAUGUGUGUGAUGUGACAUUUGUCAUUUUCAUUAGCAAAAAAAGUUGUAUGAUCUGUGCCUUUUUUAUAUCUUGGCAGGUAGGAAUAUUAUAUUUGGAUGCAGAGUUUGGAAUUCUCGGGUGCCAA`, “RBNS enrichment (R)” read 0.721.
`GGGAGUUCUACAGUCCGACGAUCCUACUUUUUGACUUCUGUUUGUCUUACGCUUCUCUCAGGGAAAAACAUGCAGUCCUCUAGUGUUUCAUGUACAUUCUGUGGGGGGUGAACACCUUGGUUCUGGUUAAACAUGGAAUUCUCGGGUGCCAA`: “RBNS enrichment (R)” 0.503.
Under “RBNS enrichment (R)”, `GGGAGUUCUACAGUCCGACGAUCCCAUCCUUGUGGAUGUGAAGUGGUAACUCAUUGUGGCUUUGAUUUACAUUUCCUUGAUAGCUAAUGAUGAGCAUUUUUCAUGUGCUUAUGGGCCGUUUAUAUACCUUUGGUGGAAUUCUCGGGUGCCAA` is recorded as 0.627.

Mixed results
The enrichment score of `GSPAKKLFTSTGL` is reported as 0.423 (Cln2 (Saccharomyces cerevisiae); peptide binding, competitive growth sequencing; peptide, Saccharomyces cerevisiae, unfused Cln2 strain; mutational scanning library 1; direction not given).

Excerpt of the above (study 2):
`P83V`: “relative binding score” -0.0617%.
`F15V` — result for “relative binding score”: 23.7%.
`E128R` — result for “relative binding score”: 80.5%.
For `N165L`, “relative binding score” read -7.61%.
Under “relative binding score”, `S87N` is recorded as -3.46%.
`E152M` — result for “relative binding score”: 73.4%.
For `L82S`, “relative binding score” read 4.95%.
`R99H` — result for “relative binding score”: 92%.
